Results gathered from unrelated publications.
“And” joins repeats or separate records; there may be more than shown. Numbers after ± are the reported error.

`CC(C)[C@H](NC(=O)[C@@H]1CCCN1C(=O)[C@H](CCCNC(=N)N)NC(=O)[C@H](CS)NC(=O)[C@H](Cc1c[nH]c2ccccc12)NC(=O)[C@H](CCCNC(=N)N)NC(=O)[C@@H](Cc1ccccc1)NC(=O)[C@H](Cc1c[nH]cn1)NC(=O)[C@H](CCC(=O)O)NC(=O)[C@H](CS)NC(=O)[C@H](CS)NC(=O)CNC(=O)[C@@H]1CC(=O)N[C@@H](CCCNC(=N)N)C(=O)NCC(=O)N[C@@H](CC(=O)O)C(=O)N[C@H](Cc2ccc(O)cc2)C(=O)N1)C(N)=O` [technetium-99m labelled] has a tissue uptake of 1.36 ± 1.41 %ID/g (C57 mice B16/F1 melanoma female, heart; iv, 2 h, with: NDP-MSH 10 µg co-injected).
The tissue uptake of `CCCC[C@@H]1NC(=O)[C@@H](NC(=O)[C@H](CCC(=O)O)NC(=O)CNC(=O)CN2CCN(CC(=O)O)CCN(CC(=O)O)CCN(CC(=O)O)CC2)CCCCNC(=O)C[C@@H](C(N)=O)NC(=O)[C@H](C(C)C)NC(=O)[C@@H]2CCCN2C(=O)[C@H](CCCNC(=N)N)NC(=O)CNC(=O)[C@H](Cc2c[nH]c3ccccc23)NC(=O)[C@H](CCCNC(=N)N)NC(=O)[C@@H](Cc2ccccc2)NC(=O)[C@H](Cc2c[nH]cn2)NC(=O)[C@H](CCC(=O)O)NC1=O` [gallium-67 labelled] is reported as 0.02 ± 0.02 %ID/g (C57 mice with B16/F1 melanoma, lung; intravenous, 2 h).
`O=C([O-])CN1CCN(CC(=O)[O-])CCN(CC(=O)[O-])CCN(CC(=O)[O-])CC1.[64Cu+2]` has a tissue uptake of 0.37 %ID/g (healthy athymic nude mice, large intestine; intravenous, 1 h).
With `N=C(N)NCCC[C@H](NC(=O)CON=C[C@H](F)[C@@H](O)[C@H](O)[C@H](O)CO)C(=O)NCC(=O)N[C@@H](CC(=O)O)C(=O)O` [fluorine-18 labelled] the tissue ratio was 13.3 ± 1.05 (nude mice, U-87 MG xenograft; intravenous, 2 h; reference: tumour over blood).
The tissue uptake of `CN1C(=O)[C@@H](Cc2ccc(O)c(I)c2)NC(=O)CNC(=O)[C@H](Cc2ccc3ccccc3c2)NC(=O)[C@H](CCCNC(=N)N)NC(=O)[C@H]1CCCNC(=O)c1ccc(CNC(=O)CN2CCN(CC(=O)O)CCN(CC(=O)O)CCN(CC(=O)O)CC2)cc1` [lutetium-177 labelled] is reported as 0.48 ± 0.03 %ID/g (refers to: 177Lu radioactivity; female CB-17 SCID mice, Daudi xenograft, adrenals; intravenous, 0.16 nmol per mouse, 96 h).
For `O=C([O-])CN1CCN(CC(=O)[O-])CCN(CC(=O)NCCc2ccc3c(c2)C2C=CCC2C(c2cc4c(cc2Br)OCO4)N3)CCN(CC(=O)[O-])CC1.[111In+3]` (centres unmarked), the tissue uptake was 1.16 ± 0.32 %ID/g (mice with Hec50 tumour xenograft, mammary gland; 0.5 h).
The tissue uptake of `NC12CNCCNCC(NCc3ccc(CNC(=O)CCCC(=O)NCc4ccc(-c5nncnn5)cc4)cc3)(CNCCNC1)CNCCNC2.[64Cu+2]` is reported as 2.2 %ID/g and 2.19 %ID/g (athymic nude mice SW1222 xenograft, blood; 12 h post injection, 24 h accumulation interval, with: huA33-TCO pretargeting).
`CCCC[C@H](NC(=O)CNC(=O)CNC(=O)CN1CCN(CC(=O)O)CCN(CC(=O)O)CCN(CC(=O)O)CC1)C(=O)N[C@H]1CC(=O)NCCCC[C@@H](C(N)=O)NC(=O)[C@H](Cc2c[nH]c3ccccc23)NC(=O)[C@H](CCCNC(=N)N)NC(=O)[C@@H](Cc2ccccc2)NC(=O)[C@H](Cc2c[nH]cn2)NC1=O` [gallium-67 labelled] has a tissue uptake of 3.33 ± 1.08 %ID/g (female C57 mice, B16/F1 melanoma, blood; intravenous, 0.037 MBq, 0.5 h).

Excerpt of the above:
`CC(C)[C@H](NC(=O)[C@@H]1CCCN1C(=O)[C@H](CCCNC(=N)N)NC(=O)[C@H](CS)NC(=O)[C@H](Cc1c[nH]c2ccccc12)NC(=O)[C@H](CCCNC(=N)N)NC(=O)[C@@H](Cc1ccccc1)NC(=O)[C@H](Cc1c[nH]cn1)NC(=O)[C@H](CCC(=O)O)NC(=O)[C@H](CS)NC(=O)[C@H](CS)NC(=O)CNC(=O)[C@@H]1CC(=O)N[C@@H](CCCNC(=N)N)C(=O)NCC(=O)N[C@@H](CC(=O)O)C(=O)N[C@H](Cc2ccc(O)cc2)C(=O)N1)C(N)=O` [technetium-99m labelled] has a tissue uptake of 1.36 ± 1.41 %ID/g (C57 mice B16/F1 melanoma female, heart; iv, 2 h, with: NDP-MSH 10 µg co-injected).
